# Measured values from different studies.
# Every numbered part comes from another study and shows a few of its results, in no order.

# Sample 1 — technique: DNA-protein interaction ELISA; molecule type: double-stranded DNA, one strand shown; sample: in vitro, bacterial lysate; tested at: not given; notes: whole dsDNA probe, crude lysate protein; reference: highest signal in screen; direction: higher = stronger binding
# Target: Probable WRKY transcription factor 33, C-terminal DNA-binding domain (WRKY33, Arabidopsis thaliana, UniProt Q8S8P5, residues 346-449)
# Target sequence (chain): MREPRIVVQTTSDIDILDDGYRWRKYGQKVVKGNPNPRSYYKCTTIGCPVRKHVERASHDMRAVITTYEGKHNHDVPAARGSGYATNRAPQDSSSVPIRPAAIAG
Sequence,relative absorbance
AAAAAATTCCCAGCGTATCCGACCCGAAAA,28.3 % of maximum
AAAAAAGTCTAAGGACTTATAGCTGTAAAA,99.5 % of maximum
AAAAAAACTCAACTAGTGAACCACCAAAA,37.7 % of maximum
AAAAAAGTTTCCTACTTGTGTCTGTGAAAA,30.3 % of maximum
AAAAAATCCGTTCCCATTTGTCCGTCAAAA,28.5 % of maximum
AAAAAATAATTACAAGTCGGCTCCACAAAA,29.7 % of maximum
AAAAAATCCTATCTTGGCTTTGGCCTAAAA,43.4 % of maximum
AAAAAATGCTATCCGTGTCTATGCCAAAAA,43.2 % of maximum
AAAAAACCCCAGATTTCCAGCAGTTCAAAA,42.2 % of maximum
AAAAAATAAGTAACCGAACGAAACTCAAAA,55.5 % of maximum
AAAAAAAACTCCCATACTACAACCGAAAAA,44.3 % of maximum
AAAAAAAGGTTTGGGCTTCACGTTATAAAA,34.9 % of maximum
AAAAAAGGTTGGTACGTCGAGTTCTTAAAA,33.3 % of maximum
AAAAAATTAATCCATGCTTATGTCTGAAAA,47 % of maximum
AAAAAAACGATACGGTATCTAGAAAA,44 % of maximum
AAAAAAGTCTGCGTCCTACCCCATTCAAAA,57.9 % of maximum
AAAAAAATCAGCCTGACTCTGGGCGTAAAA,84.9 % of maximum
AAAAAATGGTACTCAGAGTTATAGACAAAA,52.8 % of maximum
AAAAAAACTCTAGGTCAATATTATTCAAAA,99.8 % of maximum
AAAAAAAGTCTGCGGCTGCAGGGCGGAAAA,99.3 % of maximum
AAAAAATGGTCGTCGTACTCGTGGTCAAAA,99.5 % of maximum
AAAAAAATCCCACTTCATTCTAAAAA,40.5 % of maximum
AAAAAAGTTCGGGGCTTGGTTTGGAAAAAA,29.8 % of maximum

# Sample 2 — technique: RNA Bind-n-Seq; molecule type: RNA; sample: in vitro; tested at: 200 nM; notes: whole 134-nt RNA, ends assumed; added: 150 mM LiCl; reference: input library; direction: higher = stronger binding; all molecules: 7-deaza-guanosine replaces G
# Target: Ras GTPase-activating protein-binding protein 1, full length (G3BP1, Homo sapiens, UniProt Q13283)
# UniProt Q13283, sequence (whole entry, looked up): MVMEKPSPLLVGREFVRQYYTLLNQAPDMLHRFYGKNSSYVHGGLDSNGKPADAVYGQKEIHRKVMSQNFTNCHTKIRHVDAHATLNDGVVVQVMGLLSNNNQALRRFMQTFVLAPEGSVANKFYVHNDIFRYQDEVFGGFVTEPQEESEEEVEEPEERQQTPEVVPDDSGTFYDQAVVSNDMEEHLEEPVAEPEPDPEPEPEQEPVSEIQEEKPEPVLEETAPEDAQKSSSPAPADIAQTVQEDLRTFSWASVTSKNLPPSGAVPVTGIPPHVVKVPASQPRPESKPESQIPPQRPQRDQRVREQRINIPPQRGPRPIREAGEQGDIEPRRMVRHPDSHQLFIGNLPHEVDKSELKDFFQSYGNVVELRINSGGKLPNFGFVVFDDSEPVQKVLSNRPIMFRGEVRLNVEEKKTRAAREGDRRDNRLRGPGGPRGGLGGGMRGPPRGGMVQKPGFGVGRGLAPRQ
# Constant ends, left off below: GGGAGUUCUACAGUCCGACGAUC … UGGAAUUCUCGGGUGUCAAGG
Sequence,log2 enrichment
UUAAUGAUAUAAGUAGAGAGUAGUAUCCUGGUGGAGUUGUAACCACUAUUUUUGUUUUCUAGAUCCCUAUGGUUCAGGAGGCCAGAAAUU,-1.49
GUCCUGUGCUACACAUCGUAUGUACCGAAUCGGUUUUUGGGGUUUUUGGGGUUUUUGGGAAAGUAUUAUGUUACGCCGUUCGGAUCUGCA,-0.221
CAAGUCCUGUGCUACACAUCGUAUGUACCGAAUCGGGUUGGGGUUGGGGUUGGGGAAAGUAUUAUGUUACGCCGUUCGGAUCUGCACUUC,0.234
UAACUUUAGAGGAGGAUCUGAUGGAUAUGGCAGUGGACGUGGAUUUGGGGAUGGCUAUAAUGGGUAUGGAGGAGGACCUGGAGUUGGCAA,0.214
UAACUUUAGAGGAGGAUCUGAUGGAUAUGGCAGUGGACGUGGAUUUGGGGAUGGCUAUAAUGGGUAUGGAGGAGGACCUGGAGGUGGCUA,-0.267
CCUGUGCUACACAUCGUAUGUACCGAAUCGGGGUUUGGGGUUUUUGGGGUUUUUUUGGGGAAAGUAUUAUGUUACGCCGUUCGGAUCUGC,0.534
CACAGACAACACGCACCCACACAGACACAGAGGGAAGGGGUUGGGAUGGGGACAGGGUGCCCAGCAGGGCGGGGUAGGACCCCAGCCCCU,0.565
AGUCCUGUGCUACACAUCGUAUGUACCGAAUCGGGAAAAAGGGUGGGAAAAAAAGGGAAAGUAUUAUGUUACGCCGUUCGGAUCUGCACU,-0.634

# Sample 3 — technique: protein binding microarray; molecule type: double-stranded DNA, one strand shown; sample: in vitro; tested at: not given; reference: not given; direction: higher = stronger binding
# Target: Histone acetyltransferase KAT6A, winged helix 1, GST fusion (KAT6A, Homo sapiens, UniProt Q92794, residues 1-85)
# Notes: 8-mer, flanks averaged, mean of 2 arrays, mostly near background
# Target sequence (chain): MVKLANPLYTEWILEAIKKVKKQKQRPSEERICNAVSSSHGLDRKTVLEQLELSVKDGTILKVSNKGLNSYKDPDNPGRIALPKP
Sequence,E-score
AACTCTGT,-0.0967
GCTCGAAA,-0.156
CCCCCCGC,0.221
CCTCGGAG,0.0378
CGATCTGA,-0.124
CCGGTAGC,0.258
AAAGCGCT,0.338
ACCATGCG,0.211
ATAGCTAT,-0.007
AGGTCTAA,-0.235
ACTACAAG,-0.0959
AGACCGGA,-0.0035
GGACGGGA,0.335
GAACCGAA,-0.0562
GATAGGCC,0.0628
AATGCACC,-0.164
AAACCCAC,-0.0506
GCAAAACA,-0.0916
GAGCAGAC,0.0329
AAAGGAAT,-0.26
GAATCATA,-0.146
CCCTGCAG,-0.00366
GATCTAGA,-0.267
AGTGGTTG,-0.279
GAAACTGC,0.162

# Sample 4 — technique: protein-binding microarray; molecule type: double-stranded DNA, one strand shown; sample: in vitro; tested at: 250 nM; notes: 60-bp whole probe; added: salmon DNA 0.4 mg/ml; reference: random background probes; direction: higher = stronger binding; constant ends, left off below: GCCTAGCAC … GTCTTGATTCGCTTGACGCTGCTG
# Target: Interferon regulatory factor 7, full length, phosphomimetic (IRF7, Homo sapiens, UniProt Q92985, residues 1-503, S101K/S471D/S472D/S475D/S476D/S477D/S483D/S484D/S487D)
# Target sequence (chain): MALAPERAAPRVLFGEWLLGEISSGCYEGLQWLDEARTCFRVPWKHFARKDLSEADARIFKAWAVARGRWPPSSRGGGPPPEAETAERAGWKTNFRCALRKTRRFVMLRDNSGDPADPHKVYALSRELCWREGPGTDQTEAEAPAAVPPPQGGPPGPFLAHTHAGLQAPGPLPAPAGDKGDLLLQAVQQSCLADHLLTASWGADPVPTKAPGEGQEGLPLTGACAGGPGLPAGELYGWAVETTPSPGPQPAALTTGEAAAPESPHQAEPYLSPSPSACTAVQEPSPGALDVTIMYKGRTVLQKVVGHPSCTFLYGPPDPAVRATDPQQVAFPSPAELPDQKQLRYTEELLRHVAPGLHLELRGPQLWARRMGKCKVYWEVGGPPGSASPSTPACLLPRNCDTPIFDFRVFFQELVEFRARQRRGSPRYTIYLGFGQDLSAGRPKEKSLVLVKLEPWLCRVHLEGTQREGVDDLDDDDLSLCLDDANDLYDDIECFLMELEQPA
Sequence,log fluorescence
GACGATTTCGGGTTTCGAGAAGTGCTA,3.07 z-score
TTAAGTATCGGGACTGGGTTAGTGCTA,-0.0289 z-score
TAAGGACTGCTTTTCCTTTAGTGCTAG,1.46 z-score
GACGGTCTCTTTTTCCTGACGTGCTAG,1.19 z-score
ATGTTTTTCATTTTTTTTCAGTGCTAG,1.91 z-score
GACAGTATCCTTTTCCTGACGTGCTAG,1.27 z-score
GAAGGTATCGGTCTCGGGACGTGCTAG,0.687 z-score
TTAGATCTCGGACTGGATTAGTGCTAG,0.0362 z-score
GACGGACTGCTTTCCCTGACGTGCTAG,-0.0119 z-score
CAGGAATTGAAAATTAGTGTTGTGCTA,-0.614 z-score
GACGGACTGGGGTTTCGGGATGTGCTA,1.87 z-score
TTAGGTTTCGACACCGGGTTAGTGCTA,2.98 z-score
TTAGGTCTCCTTATCCTTCAGTGCTAG,0.189 z-score
CGCTTTTTTTTTTTTTTTTTGTGCTAG,1.31 z-score
GCTCATCTGTCATGTTTGTCAGTGCTA,0.0641 z-score
GACGATATCAGACTGGCGACGTGCTAG,-0.487 z-score
TTAGGTTTCCTCTCCCTTTAGTGCTAG,1.22 z-score
TCACTTCTCCCTTTCAGACTGTGCTAG,1.24 z-score
GACGGTCTCGGTCTCGGGACGTGCTAG,0.872 z-score

# A few entries again (sample 4):
Sequence,log fluorescence
GACGATTTCGGGTTTCGAGAAGTGCTA,3.07 z-score
TAAGGACTGCTTTTCCTTTAGTGCTAG,1.46 z-score
GCTCATCTGTCATGTTTGTCAGTGCTA,0.0641 z-score
ATGTTTTTCATTTTTTTTCAGTGCTAG,1.91 z-score
CAGGAATTGAAAATTAGTGTTGTGCTA,-0.614 z-score
TTAGGTCTCCTTATCCTTCAGTGCTAG,0.189 z-score
TTAGATCTCGGACTGGATTAGTGCTAG,0.0362 z-score
TTAAGTATCGGGACTGGGTTAGTGCTA,-0.0289 z-score
GAAGGTATCGGTCTCGGGACGTGCTAG,0.687 z-score
GACGATATCAGACTGGCGACGTGCTAG,-0.487 z-score
TTAGGTTTCGACACCGGGTTAGTGCTA,2.98 z-score
GACGGACTGCTTTCCCTGACGTGCTAG,-0.0119 z-score
